Published values of several laboratories.
A part holds a random share of what one study measured. Positions count from the first letter of the parent shown.
Sequence of UniProt P54764 (whole entry, looked up): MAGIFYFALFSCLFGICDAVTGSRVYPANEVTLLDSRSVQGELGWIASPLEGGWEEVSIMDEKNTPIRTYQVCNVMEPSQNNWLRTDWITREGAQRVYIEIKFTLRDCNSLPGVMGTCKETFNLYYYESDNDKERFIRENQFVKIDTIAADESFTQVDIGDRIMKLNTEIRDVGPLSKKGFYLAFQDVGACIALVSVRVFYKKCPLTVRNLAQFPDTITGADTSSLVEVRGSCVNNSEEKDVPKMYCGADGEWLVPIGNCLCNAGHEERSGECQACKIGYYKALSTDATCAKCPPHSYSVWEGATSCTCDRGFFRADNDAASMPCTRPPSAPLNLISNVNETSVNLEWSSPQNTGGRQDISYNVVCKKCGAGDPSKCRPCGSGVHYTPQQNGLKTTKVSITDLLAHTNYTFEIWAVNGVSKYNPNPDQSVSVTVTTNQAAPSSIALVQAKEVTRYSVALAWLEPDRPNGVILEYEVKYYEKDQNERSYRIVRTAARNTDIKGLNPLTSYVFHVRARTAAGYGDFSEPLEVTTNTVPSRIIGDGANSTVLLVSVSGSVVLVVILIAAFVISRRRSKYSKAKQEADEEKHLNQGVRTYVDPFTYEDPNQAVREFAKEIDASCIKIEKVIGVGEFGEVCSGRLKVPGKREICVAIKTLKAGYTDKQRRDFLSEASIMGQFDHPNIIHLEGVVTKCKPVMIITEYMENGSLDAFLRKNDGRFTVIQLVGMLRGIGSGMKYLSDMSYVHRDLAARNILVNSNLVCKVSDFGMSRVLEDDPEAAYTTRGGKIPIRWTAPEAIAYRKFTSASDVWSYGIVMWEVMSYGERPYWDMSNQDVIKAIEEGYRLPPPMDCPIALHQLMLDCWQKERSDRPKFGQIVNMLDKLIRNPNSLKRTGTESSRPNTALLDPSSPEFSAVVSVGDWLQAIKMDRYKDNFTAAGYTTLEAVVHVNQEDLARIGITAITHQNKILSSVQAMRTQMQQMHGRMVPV

Set 1 — technique: aptamer microarray, sandwich; form: DNA with 2'F-ANA; matrix: in vitro; concentration: 200 nM; together with: Cy3 exosite-II aptamer, 400 nM; direction: higher = stronger binding; endpoint: mean fluorescence intensity; sequence: GGTTGGTGTGGTTGG
Target: Prothrombin, mature alpha-thrombin (F2, Homo sapiens, UniProt P00734)
Notes: whole 15-mer aptamer, many near background
2'F-ANA at 1 9 10 13 14 15: 46.9 a.u.
2'F-ANA at 3 5 7 11 14 15: 56.6 a.u.
2'F-ANA at 2 3 5 6 8 9 10 11 12 14 15: 47.9 a.u.
2'F-ANA at 1 3 6 8: 355 a.u.
2'F-ANA at 3 4 5 6 7 8 12 13: 160 a.u.
2'F-ANA at 2 3 4 6 9 10 11 13 14: 202 a.u.
2'F-ANA at 2 5 8 10 11 13: 87.1 a.u.
2'F-ANA at 2 4 6 9 12 15: 461 a.u.

Set 2 — target: FOSL1, bZIP domain (human); technique: DHFR protein complementation; matrix: yeast; baseline: wild-type JUN-FOS pair; direction: higher = stronger binding; endpoint: binding fitness
Notes: single substitutions, most at no-binding floor
Starting sequence: JUN, bZIP domain (human); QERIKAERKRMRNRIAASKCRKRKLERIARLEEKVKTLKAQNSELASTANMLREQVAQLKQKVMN; partner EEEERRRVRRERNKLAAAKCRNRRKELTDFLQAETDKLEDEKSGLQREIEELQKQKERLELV
M51D: -0.337 natural log
K39T: -0.503 natural log
K36V: -0.507 natural log
V35E: -1.33 natural log
E44L: -0.551 natural log
V35C: -0.549 natural log
N42D: -1.55 natural log
I28R: -0.626 natural log

Set 3 — technique: RNA Bind-n-Seq; form: RNA; matrix: in vitro; concentration: not given; baseline: input RNA pool; direction: higher = stronger binding; endpoint: bound/input enrichment
Target: RING finger protein unkempt homolog, zinc fingers 1-6, GST-SBP tag (UNK, Homo sapiens, UniProt Q9C0B0, residues 30-357)
Notes: RNA with constant flanks, human and mouse sites, ends assumed
Residues (chain): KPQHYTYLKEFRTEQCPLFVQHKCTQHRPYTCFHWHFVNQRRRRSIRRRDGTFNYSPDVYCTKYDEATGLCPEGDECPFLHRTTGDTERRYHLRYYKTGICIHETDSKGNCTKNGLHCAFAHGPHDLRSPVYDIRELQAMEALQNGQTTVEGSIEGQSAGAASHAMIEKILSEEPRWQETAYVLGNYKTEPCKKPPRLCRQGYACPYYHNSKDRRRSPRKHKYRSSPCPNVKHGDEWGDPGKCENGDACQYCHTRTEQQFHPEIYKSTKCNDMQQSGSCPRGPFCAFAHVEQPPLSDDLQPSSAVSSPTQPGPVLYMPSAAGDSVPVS
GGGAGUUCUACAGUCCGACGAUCUAUCUAAUACUAACCAAUCUGUUGGAUGUGGGUUUUAAAAAAUGUUUGCUAAACUACCCAAGUAAGAUUUACUGUAUUAAAUGGCCUUCGGGUCUGAAAAGCUUUUUUAACUUCUUGCUUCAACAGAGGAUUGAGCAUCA: 0.166 ratio
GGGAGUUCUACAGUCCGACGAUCAAAGGUUUCCUGCUACAGGAGGGGAGAAAGCUGUGCAGUCUCUUGGGAAAGGACUUUUCCCUUAGAGUGGGCCUCGGGGCUGCACUCCAGAGUUGUGGCAAUCUGCCUAAGUUUCCAAACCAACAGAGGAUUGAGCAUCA: 0.145 ratio
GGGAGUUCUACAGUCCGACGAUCCAGGAGGUCUUCGACUCCAAGGUGUCCAUCCAGGUGCACCUGGCGGUGAAGCACAGCAAUGAGAAGAAGAUGUACCGCUGCACGGCCUGCAACUGGGACUUCCGCAAGGAGGCUGACCUGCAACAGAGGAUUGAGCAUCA: 0.0674 ratio
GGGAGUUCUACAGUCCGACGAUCGUAAUGCAUACUUUAGCAGCUUCACUUUCUGCUUGUAUUUAUCAGUGCCUUUGUGGUAGUCAUAACUACAGUUCAUUUCAGACGAAUCAGUUUACUGGAAUGGUAUAUCAGACAGUACUGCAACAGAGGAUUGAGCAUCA: 0.219 ratio
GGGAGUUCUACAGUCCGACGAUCGUGGUAGCCAUUGGAACGCACUCAGGCAGGUGGUUUGUUCUGGAUGCAGAAACAAGAGAUCUGGUGUCAAUCCACACGGAUGGCAAUGAGCAGCUGUCUGUGAUGCGCUACUCAGUAGAUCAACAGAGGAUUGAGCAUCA: 0.197 ratio
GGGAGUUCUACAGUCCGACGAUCAGCAAUGAAAAGACAGCCCUCCUCCCAGCCCCCACCUCACUAGGAGACACGAACGUUACCGUAGAAGAGCAAUUUAACUCAAUAAAUUUAUCUUUUCAGGAUGAUCCAGACUCCAGUCCCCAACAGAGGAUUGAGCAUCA: 0.325 ratio
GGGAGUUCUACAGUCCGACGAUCUCAAAAUUCUUCUCUGCCUACAAAAGUCAUUUCCGCAAUGUCCAUAGUGAAGACUUUGAAAAUAGGAUUCUCCUUAAUUGCCCCUACUGUACCUUCAAUGCAGACAAAAAGACUUUGGAACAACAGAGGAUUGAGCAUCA: 0.161 ratio
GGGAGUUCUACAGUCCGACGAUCGGCAGCACAGCUGUUGGGUCUCAGUGCCCUUUUUUACCUUCUGAACAAGGGAAUAAUGAAGAGACUAUUUCGUCUGUUGAUGAACUGAAAAUUCCCAAAGACUGUGAUCGUUAUGAUGAUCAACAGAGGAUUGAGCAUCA: 0.679 ratio

Mixed results
CN(C)S(=O)(=O)c1ccc2c(c1)/C(=C/c1cc3c([nH]1)CCCC3)C(=O)N2 — remaining activity (Ephrin type-A receptor 4 (EPHA4, Homo sapiens, UniProt P54764); enzyme activity, inhibitor; 0.5 µM; baseline: control): 91.3%

A few entries again (set 1):
2'F-ANA at 3 4 5 6 7 8 12 13: 160 a.u.
